Assay results pooled from the literature.
Parts stem from different laboratories: compare values within a part only. Changes are numbered by the printed parent chain.

Study 1 — method: DHFR PCA, deep sequencing; sample: yeast; added: (+)-ABA 2500 µM; relative to: wild-type fitted maximum; direction: higher = stronger binding; measurement: relative binding score
Target: ABI1, truncated, D143A, DHFR fusion (Arabidopsis thaliana)
Notes: methotrexate growth selection, single substitutions
Starting sequence: PYL1, truncated, DHFR fusion (Arabidopsis thaliana); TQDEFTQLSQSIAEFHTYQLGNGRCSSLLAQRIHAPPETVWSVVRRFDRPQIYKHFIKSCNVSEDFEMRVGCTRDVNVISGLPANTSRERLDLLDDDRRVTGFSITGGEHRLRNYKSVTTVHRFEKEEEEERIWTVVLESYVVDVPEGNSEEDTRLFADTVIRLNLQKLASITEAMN
V121P: -11.5%
E152P: 86.9%
I162R: 36.4%
E147N: 91.5%
Q31P: -4.63%
I172C: 92.7%
Y115I: -8.33%
S171A: 96.8%
I105N: 89.4%
V142I: 93.4%
E152K: 94.9%
Q7M: 110%
A35K: 74%
S59D: 98.5%
R113T: 111%
W41G: -39.3%
L138C: 95.5%
C72W: 93.4%
C72R: 90%
T173V: 95.1%
R69M: 92.1%
K126I: 104%
F66S: 96%
T86G: 94.6%

Study 2 — method: competition protein-binding microarray; molecule type: double-stranded DNA, one strand shown; sample: in vitro; concentration: 2 µM; added: Cbf1 competitor, 0.05 µM; direction: higher = stronger binding; measurement: fluorescence intensity; shared flanks, not repeated: … GTCTTGATTCGCTTGACGCTGCTG
Target: Phosphate system positive regulatory protein PHO4, full length, GST-tagged (PHO4, Saccharomyces cerevisiae, UniProt P07270, residues 1-312)
Notes: whole 60-bp probe, lowest competitor level
Target sequence (chain): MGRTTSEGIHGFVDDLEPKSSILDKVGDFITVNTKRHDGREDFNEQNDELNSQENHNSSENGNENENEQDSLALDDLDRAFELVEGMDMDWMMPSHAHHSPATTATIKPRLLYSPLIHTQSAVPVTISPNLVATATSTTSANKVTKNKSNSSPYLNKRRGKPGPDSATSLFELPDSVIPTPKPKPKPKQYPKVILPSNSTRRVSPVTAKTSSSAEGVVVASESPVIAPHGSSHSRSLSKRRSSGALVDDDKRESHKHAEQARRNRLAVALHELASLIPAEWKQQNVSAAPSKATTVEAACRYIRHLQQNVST
TGTGCGTTATGCTTCCATGTGACGCTACATCTATTG: 6650 a.u.
AAGAGCTTCTTGCGCTTTTTATCCCCATGGACTAGG: 3440 a.u.
CACCGATTGCGTAATCTCCTGTACACGGTTCAAGAA: 4770 a.u.
TGGCGCCATCGCCATCACGATTTCAACCATGTCAAT: 5030 a.u.
CTTTGAAAAGCTGCCAACGTGACAAAACGTTCTGAT: 13400 a.u.
AACCTAGAGCTTCGTCACGGGGGCCTTGTCCGACTT: 7130 a.u.
TTGCATTTCGGGCCTTTCGTGCCGAACTTTGCCAGT: 4220 a.u.
GGCTTCTTGAGTGTAAACGTGAGCCCTGTAATCTCA: 8670 a.u.
GTATGGCGCGGAAGAAACCGAGAGAGCTGCAAAATT: 3740 a.u.
GCCAGGGATCCTCACCACGTCGCCGTCCTGTAATCC: 5380 a.u.
AGGCCAGTTGCTCAACACGCTACAAGAAGGCAGATG: 6290 a.u.
TAATACGGGCATGAACGCGTGCAAACAACTCGTCCT: 8490 a.u.
TGCGCAACAACTTGTCACGCGACTTTATGTCTAGAA: 7160 a.u.
TTCTGAATGGTGTTGGTCGTGGCCGTACCGATTTAT: 6560 a.u.
CAGCCTTTAATTTTTCACGTGTGAAATTCGATAATT: 12300 a.u.
CGCAATTTCCTTTATCGAACATATTGGGTAAACAAC: 3680 a.u.
GGATAGGGTCTTTGGCATGTGCGGTGCTTACCCGGA: 10500 a.u.
ATTGTTGCTAAAAACGACATGACAACCATGAAGTAC: 6490 a.u.
CGGAATATGTTAGACCATGTGGTACCGTCGTTTTGG: 11000 a.u.
TGCGCAACAACTTGACAAGTGGGTGTATGTCTAGAA: 5240 a.u.
TGCGCAACAACTTGAGCTGTGGGTGTATGTCTAGAA: 4310 a.u.
TGGTAATTCAACCGTCACGGGTGTAGAAAATGGTGA: 6640 a.u.
ACCCCGCTTCCACCGCCGTTGTTGTTGTTGTTGTTG: 2960 a.u.
GAGATACAACACCATCACGTTTAAAAGCCTTGTTGG: 9060 a.u.
CTGAGTCCGACATCGCTCGTGTAGTTATTTGTAAAA: 7810 a.u.

Study 3 — target: CCNE1, cyclin fold, Cln2 fusion (human); method: yeast growth competition, sequencing; sample: yeast; notes: strong parent motif; relative to: not given; direction: higher = stronger binding; measurement: normalised enrichment score
Starting sequence: E2F1 docking peptide (human); PPVKRRLDFETDH; partner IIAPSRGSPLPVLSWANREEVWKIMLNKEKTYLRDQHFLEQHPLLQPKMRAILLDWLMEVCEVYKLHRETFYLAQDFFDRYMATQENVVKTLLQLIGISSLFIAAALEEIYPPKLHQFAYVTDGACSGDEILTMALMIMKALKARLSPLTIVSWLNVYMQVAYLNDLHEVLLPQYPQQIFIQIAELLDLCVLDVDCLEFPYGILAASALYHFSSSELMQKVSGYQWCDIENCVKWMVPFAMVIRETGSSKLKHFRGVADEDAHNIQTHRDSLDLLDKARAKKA
PKVKRRLDFETDH [P2K]: 6.75
PPVKRRLDSETDH [F9S]: 0.326
PRVKRRLDFETDH [P2R]: 6.85
PPVKRRLNFETDH [D8N]: 6.56
PPVKRCLDFETDH [R6C]: 4.79
PPVNRRLDFETDH [K4N]: 5.07
PPVKRRLDFMTDH [E10M]: 6.12
PPWKRRLDFETDH [V3W]: 6.31
PLVKRRLDFETDH [P2L]: 6.1
PPDKRRLDFETDH [V3D]: 0.155
PPVKRMLDFETDH [R6M]: 5.02
PPVKRRLDFEWDH [T11W]: 6.34
PPVYRRLDFETDH [K4Y]: 2.29
PPVFRRLDFETDH [K4F]: 3.68
PPVKRRLDFETYH [D12Y]: 6.63
PPVKRRLDFELDH [T11L]: 6.14

Study 4 — method: RNA Bind-n-Seq; molecule type: RNA; sample: in vitro; concentration: not given; relative to: input RNA pool; direction: higher = stronger binding; measurement: bound/input enrichment
Target: RING finger protein unkempt homolog, zinc fingers 1-6, GST-SBP tag (UNK, Homo sapiens, UniProt Q9C0B0, residues 30-357)
Notes: RNA with constant flanks, human-mouse chimeric sites, ends assumed
Shared flanks, not repeated: GGGAGUUCUACAGUCCGACGAUC … CAACAGAGGAUUGAGCAUCA
Residues (chain): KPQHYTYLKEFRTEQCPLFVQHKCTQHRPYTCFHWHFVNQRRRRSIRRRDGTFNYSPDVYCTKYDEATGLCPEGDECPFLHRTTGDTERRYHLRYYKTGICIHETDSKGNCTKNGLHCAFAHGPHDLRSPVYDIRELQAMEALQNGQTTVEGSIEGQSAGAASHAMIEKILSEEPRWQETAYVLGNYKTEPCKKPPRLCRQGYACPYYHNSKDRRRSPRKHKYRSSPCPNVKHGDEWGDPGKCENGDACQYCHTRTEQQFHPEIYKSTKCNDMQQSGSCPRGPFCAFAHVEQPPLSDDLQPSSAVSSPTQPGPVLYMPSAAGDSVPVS
AGGAGGAGAUUAAAGGGUGAAAAUGGGGUGGAAGACUGUGUCAUGGCUCUGGAGACACUGUUCAGUGUCCUGCUUUCUCUGUGCAGACUGAUGGCCCCUUACACGCCCUUUCUGACUGAG: 0.0453 ratio
UGUGCAUAUGAUGCUUGAGAUGGUUUUUGCAAAAGCAGAAAUCGCUGCAAGGUCAUUACAAUAGAUAAAAGUGGUAUUUUAAACCUUUGAAAGGAAUGGAUGUAACUGUACCUUGGUACA: 0.24 ratio
GGAUUCCGCUUCCGGUUGGCCUCCAUCCGGUUCUCUCCUGAGCUACGUGUCUCUACGCUCUCAAUCCGCCAUCCAACAAACAUGGAUCAGGUAAUGCAGUUUGUGGAGCCCAGCCGGCAG: 0.0968 ratio
GCAGGAUCUUCUAAAUACCAGUGGGACAUUAUGAAAUCCCUUGGGCUCUCUGAUGACGACAUAGUGAAGUUUUCUGAAGCAGAGCACUGGCUUGAUUAUUUCCCGCCACUGGCCGUUCAG: 0.122 ratio
CAGCGCCGAGGCCGCGGUUUCCCCCUGGGUGUGCUGAGCAGCAGCCAUGGGCAUCAAAUUUUUAGAAGUUAUCAAACCUUUCUGUGCAGUUCUACCAGAAAUUCAGAAACCGGAAAGGAA: 1.33 ratio
UAAAUUAGGGCUGCCGUUUUCUGUUUCUCCCUGGGCUGCGGAAAGCCAGGCGGUUUUAUCUAGUUUGUACAAGGCUGCUGGUGUUCCCUCUUUUUUUCCACGAGGGUGUUUUUGGCUGCA: 0.866 ratio
UUUGUAUUUAUGCUAAGCACACGUGCUGGUGGUCUGGGCAUCAAUCUUGCAACUGCUGAUGUAGUAAUUUUAUAUGACUCAGAUUGGAAUCCGCAAGUUGAUCUUCAGGCUAUGGACCGU: 0.423 ratio
AGGAGGAGGUUAAAGGGUGAGAGUGGGGUGGAAGACUGUGUCAUGGCUCUGGAGACAUUGUUUAGUGUCCUGCUUUCUCUUUGCAGACUGAUGGCCCCUUACACGCCCUUUCUGACUGAG: 0.127 ratio
GAGCGUCUUGCCCGCACUGGGAUCAUCGUGACCACUAGUGAGGCUGUCCUCCUACAGCUGGUAGCUGACAAAGACCACCCGAAGUUCAAGGAAAUUCAGAACCUAAUUAAGGCGAGUGCC: 0.164 ratio
AAAGGCAAAAAGGGCAGCUGUGUCAUUACUUGGGAGACUCUGGGGGAGGGAAAUUCUGUUCUUUUGUUUAAUUUUCCCCCAAAUGAAGCCAAAGUGUGUGUUGAAGAACUGAGAAAAAAU: 0.201 ratio
GAUAAGAAAAGCUUGUUGGAGACCCGAUUGCACAUCACUGGUAGAGACCUGAGGUGUCAAAUAGCUGAAACUUUCGGAUUUCAAGAAAAUUACAUCAAGAUCGUAAUAAAUAAGAAACAG: 0.299 ratio

Study 5 — method: protein binding microarray; molecule type: double-stranded DNA, one strand shown; sample: in vitro; concentration: not given; relative to: not given; direction: higher = stronger binding; measurement: E-score
Target: Histone acetyltransferase KAT6A, winged helix 1, GST fusion (KAT6A, Homo sapiens, UniProt Q92794, residues 1-85)
Notes: 8-mer, flanks averaged, mean of 2 arrays, mostly near background
Residues (chain): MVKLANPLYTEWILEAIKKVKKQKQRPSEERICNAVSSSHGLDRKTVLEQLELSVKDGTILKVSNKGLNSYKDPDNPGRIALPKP
ACAGGTGA: -0.126
CCGCCCAC: 0.193
CCTACGAA: -0.101
AGCCTGAC: -0.0849
GAATCCTC: -0.17
AGGGGAAT: -0.0881
GTACCGGA: 0.122
GCAAACAA: -0.192
CTTCGAAG: -0.134
GCTAAGCA: 0.154
AGTGGTCA: -0.13
CATGTACC: 0.116
ACTATGAG: -0.199
ACACACGA: -0.146
CACTGACC: -0.137
ACAGGAAG: -0.0869
CGTGCGTC: 0.28
CACATGCA: -0.087
CTAATCAA: -0.123
TCCATCGA: -0.167
TAACAACA: -0.00987
ATCAAATC: -0.287
GACCTTAA: -0.113
